Assay results pooled from the literature.
“And” joins repeats or separate records; there may be more than shown. ± gives the spread as reported.
Sequence of UniProt P07947 (whole entry, unmodified, looked up): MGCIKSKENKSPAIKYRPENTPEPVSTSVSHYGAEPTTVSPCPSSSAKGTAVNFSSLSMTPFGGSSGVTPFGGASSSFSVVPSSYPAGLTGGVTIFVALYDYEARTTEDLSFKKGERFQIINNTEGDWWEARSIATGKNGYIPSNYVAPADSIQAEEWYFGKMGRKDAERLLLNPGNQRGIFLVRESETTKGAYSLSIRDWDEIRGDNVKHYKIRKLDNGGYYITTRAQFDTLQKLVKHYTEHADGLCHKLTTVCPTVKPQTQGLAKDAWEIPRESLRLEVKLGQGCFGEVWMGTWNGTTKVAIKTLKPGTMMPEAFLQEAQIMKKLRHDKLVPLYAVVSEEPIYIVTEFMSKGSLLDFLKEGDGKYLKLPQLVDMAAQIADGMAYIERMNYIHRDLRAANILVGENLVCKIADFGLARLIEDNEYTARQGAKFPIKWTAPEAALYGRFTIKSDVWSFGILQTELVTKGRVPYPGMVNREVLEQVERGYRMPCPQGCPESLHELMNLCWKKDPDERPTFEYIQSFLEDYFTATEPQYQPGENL
Sequence of UniProt Q9UM07 (whole entry, looked up): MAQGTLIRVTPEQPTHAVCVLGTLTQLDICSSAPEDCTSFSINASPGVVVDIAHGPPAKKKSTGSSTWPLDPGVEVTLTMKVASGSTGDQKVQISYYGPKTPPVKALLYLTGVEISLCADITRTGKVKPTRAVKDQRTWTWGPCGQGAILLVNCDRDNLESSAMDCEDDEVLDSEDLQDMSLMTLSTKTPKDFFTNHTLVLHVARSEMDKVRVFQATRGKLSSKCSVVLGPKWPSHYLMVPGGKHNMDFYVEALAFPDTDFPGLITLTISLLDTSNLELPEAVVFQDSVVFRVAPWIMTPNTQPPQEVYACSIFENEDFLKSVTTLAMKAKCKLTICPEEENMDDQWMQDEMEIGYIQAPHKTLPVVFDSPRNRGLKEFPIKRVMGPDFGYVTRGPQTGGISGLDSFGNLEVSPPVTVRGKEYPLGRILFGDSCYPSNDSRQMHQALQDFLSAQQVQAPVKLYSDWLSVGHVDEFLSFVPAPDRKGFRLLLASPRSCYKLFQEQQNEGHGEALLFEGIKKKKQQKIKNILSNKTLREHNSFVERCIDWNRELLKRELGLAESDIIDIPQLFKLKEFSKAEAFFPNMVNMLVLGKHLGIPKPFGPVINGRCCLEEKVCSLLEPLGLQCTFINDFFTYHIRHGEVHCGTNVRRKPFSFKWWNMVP

N[C@H](C(=O)N1CCCC1)C1CCN(c2nccc3c(-c4ncc(Cl)cc4Cl)cccc23)CC1
inhibition (Protein-arginine deiminase type-4 (PADI4, Homo sapiens, UniProt Q9UM07); enzyme activity, inhibitor; 60 µM): 101%

Cc1cc(C(=O)Nc2nc3cccc(C)c3n2[C@H]2CCCCN(C(=O)/C=C/CN(C)C)C2)ccn1
cell cycle distribution (Trypanosoma brucei; propidium iodide flow cytometry, refers to: Multi phase; bloodstream CLK1 over-expression uninduced; concentration not given): 17% and 14.5% and 14.3%

Cc1cc(Oc2nc(N3CC[C@@H](c4ccncc4)C3)ncc2F)[nH]n1
IC50 (C-33-A; cell proliferation): 26.9 µM

CC(C)[C@H]1NC(=O)C[C@H]2/C=C/CCSSC[C@@H](NC1=O)C(=O)N[C@H](Cc1cccc3ccccc13)C(=O)NCC(=O)O2
inhibition (Tyrosine-protein kinase Yes (YES1, Homo sapiens, UniProt P07947, T348I); enzyme activity, inhibitor; 10 µM): -2.3%

O=C1NC2(CC2)COc2ncc(F)cc2[C@H]2COCCN2c2ccn3ncc1c3n2
organ-to-brain weight ratio (Sprague-Dawley rat, male, kidneys; oral, 5 mg/kg/day, 4 weeks dosing, end of recovery): 156 ± 16.1%

CC(C)CC(C(=O)N1CC2(CC1C#N)C(=O)Nc1ccccc12)N(C)C(=O)c1cc2c(F)cc(F)c(F)c2[nH]1 (stereo not drawn)
inhibition (human coronavirus 229E; viral replication; 0.0333 µM): 100%

O=C(O)C(Cl)Cl.OCCN(CCO)CCO
herbicidal inhibition (Eclipta prostrata; 15 mg/mL, 21 days, pre-emergence, greenhouse): 0%

N=C(N)NCCC[C@@H]1NC(=O)[C@H](CCCCNC(=O)CCC(NC(=S)Nc2ccc(CC3CN(CC(=O)O)CCN(CC(=O)O)CCN(CC(=O)O)CCN3CC(=O)O)cc2)C(=O)NCCCC[C@@H]2NC(=O)[C@@H](Cc3ccc(O)cc3)NC(=O)[C@H](CC(=O)O)NC(=O)CNC(=O)[C@H](CCCNC(=N)N)NC2=O)NC(=O)[C@@H](Cc2ccc(O)cc2)NC(=O)[C@H](CC(=O)O)NC(=O)CNC1=O (stereo partly drawn) [scandium-44 labelled]
tissue uptake (PET imaging ROI; female athymic nude mice, U-87 MG xenograft, kidney; intravenous, 0.5 h, added: cRGD 50 mg/kg blocking): 3.17 ± 0.4 %ID/g

COc1ccccc1-c1n[nH]c2nc(NC3CCN(C(=O)Cc4ccc(F)cc4F)CC3)ncc12
relative abundance (bead binding, competition bead pull-down, refers to: LINJ.36.6960; Leishmania donovani extract; 10 µM; baseline: vehicle): 1.04

CC(C)(C)C(=O)OCOP(=O)(OCOC(=O)C(C)(C)C)C1CCCN(O)C1=O (stereo not drawn)
TGI (KM12): 13.3 µM

COc1ccccc1-c1n[nH]c2nc(N[C@H]3CC[C@H](NS(=O)(=O)CC(C)C)CC3)ncc12
relative abundance (bead binding, competition bead pull-down, refers to: LINJ.23.0220; Leishmania donovani extract; 10 µM; baseline: vehicle): 0.94

CCCCCCCCCCCC(=O)C(C)C(=O)N1CCC[C@H]1C(=O)NC(C)(C)C(=O)NC(C)(C)C(=O)NC(C)(C)C(=O)N[C@](C)(CC)C(=O)NCCC(=O)N[C@@H](C)C(=O)N[C@](C)(CC)C(=O)N[C@@H](C)C(=O)N[C@@H](CC(C)C)C(=O)N[C@](C)(CC)C(=O)NCCC(=O)N[C@@H](C)C(=O)N[C@](C)(CC)C(=O)NCCC(=O)N[C@@H](C)C(=O)NC(C)(C)C(=O)NC(C)(C)C(=O)NC(C)(C)C(=O)N[C@@H](C)C(=O)N[C@@H](CC(=O)O)C(=O)O (stereo partly drawn)
unbound compound (MS peak area) (β-1,3-glucan; pull-down, LC-MS; 1 h, pH 7.0, 30 °C, added: β-glucan 1 mg/mL; higher = less bound): 856 a.u.

Repeated from above:
COc1ccccc1-c1n[nH]c2nc(N[C@H]3CC[C@H](NS(=O)(=O)CC(C)C)CC3)ncc12
relative abundance (bead binding, competition bead pull-down, refers to: LINJ.23.0220; Leishmania donovani extract; 10 µM; baseline: vehicle): 0.94
